Experimental data of several laboratories.
Numbered parts are unrelated; each lists some results of a single study.

Series 1 — technique: protein-binding microarray; molecule type: double-stranded DNA, one strand shown; sample: in vitro; concentration: 250 nM; notes: 60-bp whole probe; added: salmon DNA 0.4 mg/ml; relative to: random background probes; reading: higher = stronger binding; endpoint: log fluorescence; all sequences stand within: GCCTAGCAC … GTCTTGATTCGCTTGACGCTGCTG
Target: Interferon regulatory factor 5, full length, phosphomimetic (IRF5, Homo sapiens, UniProt Q13568-2, residues 1-514, K96S/S451D/S453D/S456D/S462D)
TTAGGTTTCCGTATCCTTTAGTGCTAG: 1.29 z-score
GACGGACTGAGTTTCGAGACGTGCTAG: 3.94 z-score
GGAGTTTTCAGTCCTGGGATGTGCTAG: 1.32 z-score
TTAGGTTTCGGCTTTCGGTTAGTGCTA: 9.64 z-score
GACGATTTCGGTTTCGGGACGTGCTAG: 9.16 z-score
TTAGGTTTCGAGTATCGGTTAGTGCTA: 8.66 z-score
TTAGGTTTCCTACAGCTTTAGTGCTAG: 0.0935 z-score
GCTTCCTCCTACCCGACCCCGTGCTAG: 0.15 z-score

Series 2 — target: UBE2M UBC core domain (UniProt P61081); technique: yeast two-hybrid; sample: yeast; notes: mostly zero background; relative to: not given; reading: higher = stronger interaction; endpoint: lacZ reporter activity
B1: TRIM5 RING domain (UniProt Q9C035); chain LREVKLSPEGQKVDHCARHGEKLLLFCQEDGKVICWLCERSQEHRGHHTFLTEEVAREYQVKL
B2: TRIM5 RING domain (UniProt Q9C035); chain ILVNVKEEVTCPICLELLTQPLSLDCGHSFCQACLTANHKKSMLDKGESSCPVCRISYQPENIRP
B3: TRAF5 RING domain (UniProt O00463); chain FVERLEERYKCAFCHSVLHNPHQTGCGHRFCQHCILSLRELNTVPICPVDKEVIKSQEVFK
B4: RC3H1 RING domain (UniProt Q5TC82); chain QAPQWTDFLSCPICTQTFDETIRKPISLGCGHTVCKMCLNKLHRKACPFDQTTINTDIELL
B5: TRIM24 RING domain (UniProt O15164); chain EAARLNLLDTCAVCHQNIQSRAPKLLPCLHSFCQRCLPAPQRYLMLPAPMLGSAETPPPVPAPGSPVSGSSPFATQVGVIRCPVCSQECAERHII
Residues (chain): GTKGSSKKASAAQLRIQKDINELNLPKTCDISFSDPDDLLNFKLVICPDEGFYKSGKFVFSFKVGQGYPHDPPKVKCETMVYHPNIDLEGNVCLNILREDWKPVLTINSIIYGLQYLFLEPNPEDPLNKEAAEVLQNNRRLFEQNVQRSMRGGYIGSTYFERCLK
B1 (TRIM5 RING domain): 0
QVDKAVFHMQSVKCLKCQEQKRAVLPCQHAALCELCAEGSECPICQPGRAHTLQS (UNK RING domain (UniProt Q9C0B0)): 0
B2 (TRIM5 RING domain): 0
MPIRALCTICSDFFDHSRDVAAIHCGHTFHLQCLIQWFETAPSRTCPQCRIQVGKRTIIN (TRAIP RING domain (UniProt Q9BWF2)): 0
B3 (TRAF5 RING domain): 0
B4 (RC3H1 RING domain): 0
GAAPGPEAAECLVCSELALLVLFSPCQHRTVCEECARRMKKCIRCQVVVSKKLRPD (MIB2 RING domain (UniProt Q96AX9)): 0
B5 (TRIM24 RING domain): 0

Series 3 — technique: RNA Bind-n-Seq; molecule type: RNA; sample: in vitro; concentration: 200 nM; notes: whole 134-nt RNA, ends assumed; added: 150 mM LiCl; relative to: input library; reading: higher = stronger binding; endpoint: log2 enrichment; each molecule: 7-deaza-guanosine replaces G
Target: Ras GTPase-activating protein-binding protein 1, full length (G3BP1, Homo sapiens, UniProt Q13283)
UniProt Q13283, sequence (whole entry, looked up): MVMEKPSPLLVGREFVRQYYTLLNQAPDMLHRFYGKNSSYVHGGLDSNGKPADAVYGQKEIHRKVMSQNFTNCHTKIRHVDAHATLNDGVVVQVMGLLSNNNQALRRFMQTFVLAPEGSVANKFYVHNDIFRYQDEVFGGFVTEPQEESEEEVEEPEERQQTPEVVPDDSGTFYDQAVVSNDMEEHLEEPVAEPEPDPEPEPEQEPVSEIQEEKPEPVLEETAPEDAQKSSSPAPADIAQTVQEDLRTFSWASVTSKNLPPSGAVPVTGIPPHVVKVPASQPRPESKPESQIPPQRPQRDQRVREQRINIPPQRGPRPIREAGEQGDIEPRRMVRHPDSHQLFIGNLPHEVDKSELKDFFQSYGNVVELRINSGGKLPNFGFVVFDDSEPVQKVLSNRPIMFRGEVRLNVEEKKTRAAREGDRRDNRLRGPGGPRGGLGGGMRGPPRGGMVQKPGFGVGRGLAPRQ
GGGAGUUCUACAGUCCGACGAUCCACAGACAACACGCACCCACACAGACACAGAGGGAAGGGGUUGGGAUGGGGACAGGGUGCACAGCAGGGCGGGGUAGGACACCAGCCCCUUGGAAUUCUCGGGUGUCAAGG: -0.0106
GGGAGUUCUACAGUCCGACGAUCCUGUGCUACACAUCGUAUGUACCGAAUCGGGUUUUUUUGGGUUUUUUUGGGGUUUUUUUGGGAAAGUAUUAUGUUACGCCGUUCGGAUCUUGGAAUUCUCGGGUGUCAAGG: 1.53
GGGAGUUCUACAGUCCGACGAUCCAAGUCCUGUGCUACACAUCGUAUGUACCGAAUCGGUUUUUUUGGUGGUUUUUGGAAAGUAUUAUGUUACGCCGUUCGGAUCUGCACUUCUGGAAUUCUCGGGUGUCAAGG: -0.426
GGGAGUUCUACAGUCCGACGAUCCAAGUCCUGUGCUACACAUCGUAUGUACCGAAUCGGAAAGGUUUUUGGUUUUUGGAAAGUAUUAUGUUACGCCGUUCGGAUCUGCACUUCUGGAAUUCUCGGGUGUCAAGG: -1.51
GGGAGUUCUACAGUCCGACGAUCCAAGUCCUGUGCUACACAUCGUAUGUACCGAAUCGGGGAGGGGUUUGGGGAGGGGAAAGUAUUAUGUUACGCCGUUCGGAUCUGCACUUCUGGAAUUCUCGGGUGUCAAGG: 0.333
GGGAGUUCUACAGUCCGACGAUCAAGUCCUGUGCUACACAUCGUAUGUACCGAAUCGGGUUUGGGGUUUGGGGUUUGGGGAAAGUAUUAUGUUACGCCGUUCGGAUCUGCACUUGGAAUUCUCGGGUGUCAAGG: -0.638
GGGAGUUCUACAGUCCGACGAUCCCUGUGCUACACAUCGUAUGUACCGAAUCGGGGAAAAAAGGGAAAAAAGGGGAAAAAAGGAAAGUAUUAUGUUACGCCGUUCGGAUCUGCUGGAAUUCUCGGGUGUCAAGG: 0.682

Series 4 — technique: RNA Bind-n-Seq; molecule type: RNA; sample: in vitro; concentration: 365 nM; relative to: no-protein control; reading: higher = stronger binding; endpoint: RBNS enrichment (R)
Target: RNA binding protein fox-1 homolog 2, RRM domain, GST-SBP tag (RBFOX2, Homo sapiens, UniProt O43251-10, residues 100-194)
Notes: natural RNA segment, single round, ends assumed
Residues (chain): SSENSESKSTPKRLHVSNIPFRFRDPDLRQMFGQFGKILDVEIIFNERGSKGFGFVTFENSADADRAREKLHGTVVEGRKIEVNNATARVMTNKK
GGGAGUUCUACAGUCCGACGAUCCGACUCCCCACCCUUUUGCAUUCUGGGAGCCCACAUCUAUUUUUUACACCCCCCCCCACAAGAGGGGUGGAGUUUCUUCCCAACCCAAAUCUGGAGAGGUCAGAAUGGAAUGGAAUUCUCGGGUGCCAA: 0.269
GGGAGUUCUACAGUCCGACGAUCGAUGUUUGCUUGUCUGCUUUCUCUUUAUAGUACAUGAACAGUUCAGCCUUAGACUAUGUAACUGUUUUCUUAUCUUUAGCUGAAAAUGGGGGGAGGGCAUUCUGUACUGCUGGAAUUCUCGGGUGCCAA: 1.33
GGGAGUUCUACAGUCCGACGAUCGUCCAAGGCUGAGUGAGAGCCGGCCAUGCCUCCCCUCCUACUCCUCUGAAUCUCCCGACCUUGGUCCCCUGCCCAAGAGAGGGUAAGGAGGCUGGUGGGGGAUACGGUGGUGGAAUUCUCGGGUGCCAA: 0.208
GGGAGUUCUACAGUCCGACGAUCUCAUGGGCCAGGUCCUCAGUUUCUAACUCUUUCCCUUCCCCACAGUUCGUUGUCGCCAUGCGGCUUUUGCUCAGUCUAGUAUUCUGCCUUGUUUUUCACAUUGGGAACCCUGGAAUUCUCGGGUGCCAA: 0.809
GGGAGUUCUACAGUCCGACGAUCGUACUAUCUAUAUAUAUAUCUCAAGCAUCUUUCAGGUCUUUGUGUGUGGCUUUCUUAAAGCCCUGUUGUAAAAAAUUACUAUGUGGAUGGCAGUCUCUCACAUCACAGAUUGGAAUUCUCGGGUGCCAA: 0.628
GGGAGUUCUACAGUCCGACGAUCAAUCUAUAUUAUUCAUAUUGAAUGUAUUAACAGAUAAUGGUGCAAAAGCAUUCUUCCCAGGGGAAGAGUGUAUCAUGCAUAACUGCAAUUUAAGUCCUUCCUUUGAUAAUUGGAAUUCUCGGGUGCCAA: 0.235

For quick reference, copied from above (series 2):
B3 (TRAF5 RING domain): 0
B2 (TRIM5 RING domain): 0
GAAPGPEAAECLVCSELALLVLFSPCQHRTVCEECARRMKKCIRCQVVVSKKLRPD (MIB2 RING domain (UniProt Q96AX9)): 0
